Assay results from different studies.
Protocols differ between the studies behind these lines. Several values in a cell are separate wells, animals, samples, runs or records. ± marks the error that the study gave.

Structure (SMILES) | tested on | test | system | setting | how to read | endpoint | value
CCCCCCCCC(=O)c1cc(O)c(O)c(O)c1 | COS-7 | – | – | 10 µM, 24 h, 0.1% DMSO, unit not given | relative to: vehicle control | confluence | 0.83 ± 0.07
Cc1cc(O)c2c(c1)C(=O)c1cccc(O)c1C2=O | HepaRG co-cultured with HK-2 | MTT | – | 33.33 µM, 24 h | relative to: untreated control | cell viability | 96.1 ± 11%
Fc1ccc(CN(Cc2ccc(F)cc2)c2ccc3scnc3c2)cc1 | sample A patient iPSC-derived NPCs | MTS | – | 10 µM, 24 h | relative to: vehicle | viability | 131 ± 15.4%
COc1cc2ncnc(Nc3ccc(Oc4ccccc4)c(C)c3C)c2cc1OC | COLO 205 (BRAF V600E) | resazurin | – | 0.1 µM, 72 h, added: trametinib | relative to: DMSO | viability | 101%
Cc1cccc(-c2[nH]c(CNc3ccccc3F)nc2-c2ccc3ncnn3c2)n1 | MM1.S pomalidomide-resistant | XTT | – | 0.25 µM | relative to: untreated | viability | 98%
CC(=O)c1c(C)cc2cc(O)cc(O[C@@H]3O[C@H](CO)[C@@H](O)[C@H](O)[C@H]3O)c2c1O | HepaRG co-cultured with HK-2 | MTT | – | 66.67 µM, 24 h | relative to: untreated control | cell viability | 111 ± 6.28%
Cc1nc2ccc(NCc3ccc(OC(F)(F)F)cc3)cc2[nH]1 | sample A patient iPSC-derived NPCs | MTS | – | 10 µM, 24 h | relative to: vehicle | viability | 132 ± 7.78%
CN1CC[C@H](c2c(O)cc(O)c3c(=O)cc(-c4ccccc4Cl)oc23)[C@H](O)C1 | COS-7 | – | – | 100 µM, 24 h, 0.1% DMSO, unit not given | relative to: control | confluence | 0.66 ± 0.03
O=C(O)CCNc1cc(N2CCc3ccccc3CC2)nc(-c2ccccn2)n1 | OCI-Ly1 | – | – | 0.5 µM, 120 h | – | viability | 132%
Nc1cccc2c1C(=O)N(C1CCC(=O)NC1=O)C2=O (centres unmarked) | MM1.S | XTT | – | 1.2 µM | – | viability | 28% and 31% and 16%
CC(=O)c1nn(-c2ccc(Cl)cc2)/c(=N/N=C(\C)c2ccc(NC(=O)c3ccc(C)cc3)cc2)s1 | MCF7 | – | – | 0.078 µM | – | viability | 86.7%
Cc1nc2ccc(NC(=O)NCc3ccccc3)cc2[nH]1 | sample A patient iPSC-derived NPCs | MTS | – | 10 µM, 24 h | relative to: vehicle | viability | 102 ± 4.48%
O=C(O)CC[C@H](NC(=O)N[C@@H](CCCCNC(=O)[C@H](Cc1ccc2ccccc2c1)NC(=O)CCCCCNC(=O)CN1CCN(CC(=O)O)CCN(CC(=O)O)CCN(CC(=O)O)CC1)C(=O)O)C(=O)O [gallium-68 labelled] | – | gamma counting | mouse, 22Rv1 xenograft, kidney | intravenous, 3.7 MBq, 2 h | – | tissue uptake | 26.6 ± 2.47 %ID/g
Cc1cn([C@H]2C[C@H](O)[C@@H](CO)O2)c(=O)nc1N | OCI-Ly1 | – | – | 0.5 µM, 120 h | – | viability | 166%
FC(F)(F)c1ccc(CNc2ccc3ncsc3c2)cc1 | sample A patient iPSC-derived NPCs | MTS | – | 10 µM, 24 h | relative to: vehicle | viability | 131 ± 12.3%
Cc1ccc(CNC(=O)Cn2cc(CSc3nc4ccccc4[nH]3)nn2)cc1 | Caco-2 | MTT | – | 3.91 ppm | – | viability | 78.4%
COc1cc(OC)c2c(=O)[nH]c(-c3cc(C)c(OCCO)c(C)c3)nc2c1 | OCI-Ly1 | – | – | 0.1 µM, 120 h | – | viability | 179%
FC(F)(F)c1ccc(COc2ccc3nc[nH]c3c2)cc1 | sample A patient iPSC-derived NPCs | MTS | – | 10 µM, 24 h | relative to: vehicle | viability | 105.3 ± 0.93%
CC(=O)Nc1ccc(NC(=S)NC(=O)c2ccc(C(C)(C)C)cc2)cc1 | OCI-Ly1 | – | – | 0.1 µM, 120 h | – | viability | 166%
NCc1cc2c(cc1F)C(=O)N(C1CCC(=O)NC1=O)C2 (centres unmarked) | KG-1 | CellTiter-Glo | – | concentration not given, 10% FBS | – | viability | decreased
NC(=O)c1cccc(NC(=O)/C=C/c2c[nH]c3ccccc23)c1 | OCI-Ly1 | – | – | 0.5 µM, 120 h | – | viability | 114%
COc1cc2ncnc(Nc3ccc(Oc4ccccc4)cc3C)c2cc1OC | LoVo (KRAS G13D) | resazurin | – | 0.1 µM, 72 h, added: trametinib 0 nM | – | viability | 99.3%
OCc1nc2ccc(NCc3ccc(F)cc3)cc2[nH]1 | sample A patient iPSC-derived NPCs | MTS | – | 10 µM, 24 h | relative to: vehicle | viability | 135 ± 11%
COc1cc2c(cc1-c1c(C)noc1C)ncc1[nH]c(=O)n([C@H](C)c3ccccn3)c12 | OCI-Ly1 | – | – | 0.5 µM, 120 h | – | viability | 32.2%
Fc1ccc(CN(Cc2ccc(F)cc2)c2ccc3c[nH]nc3c2)cc1 | sample A patient iPSC-derived NPCs | MTS | – | 10 µM, 24 h | relative to: vehicle | viability | 110 ± 10.3%
CCOC(=O)NCCCC(=O)NCCc1ccccc1 | OCI-Ly1 | – | – | 1 µM, 120 h | – | viability | 134%

A few entries again:
Structure (SMILES) | tested on | test | system | setting | how to read | endpoint | value
OCc1nc2ccc(NCc3ccc(F)cc3)cc2[nH]1 | sample A patient iPSC-derived NPCs | MTS | – | 10 µM, 24 h | relative to: vehicle | viability | 135 ± 11%
COc1cc2c(cc1-c1c(C)noc1C)ncc1[nH]c(=O)n([C@H](C)c3ccccn3)c12 | OCI-Ly1 | – | – | 0.5 µM, 120 h | – | viability | 32.2%
